Measured values pooled from the literature.
Each line is one published result; not all experiments were run side by side. “And” joins repeats or separate records; there may be more than shown. ± gives the spread as reported.
ANPEP: Aminopeptidase N (ANPEP, Sus scrofa, UniProt P15145)
Adenosylmethionine-8-amino-7-oxononanoate aminotransferase: Adenosylmethionine-8-amino-7-oxononanoate aminotransferase (Mycobacterium tuberculosis, UniProt P9WQ81)
folA: Dihydrofolate reductase (folA, Escherichia coli, UniProt P0ABQ4)
rep nsp14: Replicase polyprotein 1ab, nsp14 (rep, Severe acute respiratory syndrome coronavirus 2, UniProt P0DTD1)
T1: DNA aptamer; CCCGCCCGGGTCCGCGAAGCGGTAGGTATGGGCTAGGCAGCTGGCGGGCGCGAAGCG

Structure (SMILES) | tested on | test | test system | conditions | scale | endpoint | value
O=C(NNC(=NS(=O)(=O)c1ccc(-n2nc(C(F)(F)F)cc2-c2cccs2)cc1)N1CCCC1)c1ccc(Cl)cc1 | ANPEP | enzyme activity | – | 3 µM, 30 min preincubation, undiluted, unit not given | relative to: untreated | remaining activity | 0.51 ± 0.001
O=P(O)(O)OC1O[C@H](CO)[C@@H](O)[C@H](O)[C@@H]1O (some centres unmarked) | uncharacterized protein (Bacteroides thetaiotaomicron, UniProt Q8A4G9) | activator, phosphate release | – | concentration not given, together with: Mg2+ | – | phosphatase activity | inactive
OC[C@H]1O[C@@H](O[C@@H]2[C@@H](O)[C@H](O[C@@H]3[C@@H](O)[C@H](O[C@@H]4[C@@H](O)[C@H](O[C@H]5[C@H](O)[C@@H](CO)OC(O)[C@@H]5O)O[C@H](CO)[C@H]4O)O[C@H](CO)[C@H]3O)O[C@H](CO)[C@H]2O)[C@H](O)[C@@H](O)[C@@H]1O (some centres unmarked) | uncharacterized protein (Bacteroides thetaiotaomicron, UniProt A0A173VPY3) | ITC | – | pH 7.0, 25 °C | – | ΔH | -28 kcal/mol
[Ca+2] | uncharacterized protein (Bacteroides thetaiotaomicron, UniProt Q8A4G9) | phosphatase activity, activator, phosphate release | – | 5 mM, EDTA-treated enzyme, together with: substrate 9 mM | relative to: activity with Mg2+ | relative specific activity | 0.059
C=C1[C@@H](O)[C@@H]2O[C@]3(CC[C@H](/C=C/[C@@H](C)[C@@H]4CC(C)=C[C@@]5(O[C@H](C[C@@](C)(O)C(=O)O)CC[C@H]5O)O4)O3)CC[C@H]2O[C@@H]1[C@@H](O)C[C@H](C)[C@H]1O[C@@]2(CCCCO2)CC[C@H]1C | T1, DNA aptamer | microscale thermophoresis | – | pH 7.5, 25 °C, NaCl 150 mM | – | Kd | 56.7 nM
O=C[C@@H](O)[C@@H](O)[C@H](O)[C@H](O)COP(=O)(O)O | uncharacterized protein (Bacteroides thetaiotaomicron, UniProt Q8A183) | activator, phosphate release | – | concentration not given, together with: Mg2+ | – | phosphatase activity | active
NC(=O)c1ccc(-n2ccnc2)cc1 | Adenosylmethionine-8-amino-7-oxononanoate aminotransferase | thermal stability, differential scanning fluorimetry | – | 5 mM, holo enzyme | relative to: DMSO | ΔTm | 4.1 ± 0.2 °C
CC1COc2ccccc2N1C(=O)C(Cl)Cl (centres unmarked) | carboxylesterase | – | female rhesus monkey liver cytosol | 5 µM, 30 min, pH 7.4, without GSH | – | remaining compound | 78 ± 1%
[Mg+2] | uncharacterized protein (Bacteroides thetaiotaomicron, UniProt Q8A183) | phosphatase activity, activator, phosphate release | – | 5 mM, EDTA-treated enzyme, together with: substrate 20 mM | relative to: activity with this ion | relative specific activity | 1
C[C@H]1O[C@H](O[C@H]2[C@H](O)[C@@H](O)[C@@H](O[C@H]3[C@H](O)[C@@H](O)C(O)O[C@@H]3CO)O[C@@H]2CO)[C@H](O)[C@@H](O)[C@@H]1N[C@H]1C=C(CO)[C@@H](O)[C@H](O)[C@H]1O (some centres unmarked) | susA (Bacteroides thetaiotaomicron, UniProt Q8A1G0) | uncompetitive inhibitor | – | pH 7.0, together with: pNP-G6 substrate | – | Ki | 94.7 ± 6.9 nM
CC(=O)Nc1ccc2c(c1)C=CC2=O | Adenosylmethionine-8-amino-7-oxononanoate aminotransferase | thermal stability, differential scanning fluorimetry | – | 5 mM, holo enzyme | relative to: DMSO | ΔTm | 3.6 ± 0.2 °C
C(=C1c2ccccc2-c2c1ccc1ccccc21)c1cc2c3c(cccc3c1)-c1ccccc1-2 | ANPEP | enzyme activity | – | 3 µM, 30 min preincubation, diluted 10-fold, unit not given | relative to: untreated | remaining activity | 0.967 ± 0.002
OC[C@H]1O[C@@H](O[C@@H]2[C@@H](O)[C@H](O[C@@H]3[C@@H](O)[C@H](O[C@@H]4[C@@H](O)[C@H](O[C@@H]5[C@@H](O)[C@H](O[C@H]6[C@H](O)[C@@H](CO)OC(O)[C@@H]6O)O[C@H](CO)[C@H]5O)O[C@H](CO)[C@H]4O)O[C@H](CO)[C@H]3O)O[C@H](CO)[C@H]2O)[C@H](O)[C@@H](O)[C@@H]1O (some centres unmarked) | uncharacterized protein (Bacteroides thetaiotaomicron, UniProt A0A173VPY3) | ITC | – | pH 7.0, 25 °C | – | ΔG | -26.2 kcal/mol
CO[C@H]1O[C@H](CO)[C@@H](O)[C@H](O)[C@@H]1O[C@H]1O[C@H](CO)[C@@H](O)[C@H](O)[C@@H]1O[C@H]1O[C@H](CO)[C@@H](O)[C@H](O[C@H]2O[C@H](CO)[C@@H](O)[C@H](O)[C@@H]2O)[C@@H]1O | Alpha-1,2-mannosidase (BT_3858) (Bacteroides thetaiotaomicron, UniProt Q8A113) | alpha-1,3-mannosidase activity | – | concentration not given | – | enzyme activity | active
Oc1ccc(Cc2ccc(Cl)cc2)c(O)c1 | folA | differential scanning fluorimetry | – | estimate from thermal shift | – | Kd | 65600 ± 11100 nM
CO/N=C(\C(=O)N[C@@H]1C(=O)N2C(C(=O)O)=C(COC(C)=O)CS[C@H]12)c1csc(N)n1 | Salmonella enterica serovar Derby | broth microdilution | clinical isolate RKI-No 436/14 | – | – | MIC | > 16 µg/mL
Fc1ccccc1Cc1nc(-c2nc(C(F)(F)F)n[nH]2)cn2ccnc12 | – | – | healthy human subjects, both sexes | oral, 10 mg, fasted | – | subjects with reproductive-breast TEAEs | 0%
[Co+2] | uncharacterized protein (Bacteroides thetaiotaomicron, UniProt Q8A183) | phosphatase activity, activator, phosphate release | – | 5 mM, EDTA-treated enzyme, together with: substrate 4 mM | relative to: activity with Mg2+ | relative specific activity | 0.041
O=c1c2ccccc2[se]n1-c1ccccc1 | Replicase polyprotein 1ab, nsp13 helicase (rep, Severe acute respiratory syndrome coronavirus 2, UniProt P0DTD1) | RNA-stimulated ATP hydrolysis, ADP-Glo | – | 100 µM | – | ATPase inhibition | > 50%
N#Cc1cc(Cc2ccc3c(ccc4ccccc43)c2C#N)cc2c1ccc1ccccc12 | ANPEP | enzyme activity | – | 3 µM, 30 min preincubation, undiluted, unit not given | relative to: untreated | remaining activity | 0.563 ± 0.004
Cc1c(S(=O)(=O)N2CCC(C)CC2)cc(C(=O)NCc2c(F)ccc3occc23)n1C | rep nsp14 | inhibitor | – | – | – | IC50 | 11 nM
O=C1c2c(O)ccc(O)c2C(=O)c2c(NCCNCCO)ccc(NCCNCCO)c21 | DNA gyrase (gyrA/gyrB, Escherichia coli, UniProt P0AES4+P0AES6) | DNA cleavage, fluorescence HTS | – | 19.6 µM | – | inhibition | 54%
COC(=O)Nc1c(N)nc(-c2nn(Cc3ccccc3F)c3ncc(F)cc23)nc1N | – | – | healthy male humans, plasma | oral, 10 mg once daily, phase I DDI study, without sildenafil | – | Cmax at steady state | 485 ng/mL
[Mn+2] | uncharacterized protein (Bacteroides thetaiotaomicron, UniProt Q8A183) | phosphatase activity, activator, phosphate release | – | 5 mM, EDTA-treated enzyme, together with: substrate 4 mM | relative to: activity with Mg2+ | relative specific activity | 0.02
COc1cc([C@@H]2c3cc4c(cc3[C@@H](O[C@@H]3O[C@@H]5CO[C@@H](C)O[C@H]5[C@H](O)[C@H]3O)[C@H]3COC(=O)[C@H]23)OCO4)cc(OC)c1O | DNA topoisomerase 2-alpha (TOP2A, Homo sapiens, UniProt P11388) | DNA decatenation | – | 100 µM | – | inhibition | 86.4% and 6.1%
COC(=O)Nc1c(N)nc(-c2nn(Cc3ccccc3F)c3ncc(F)cc23)nc1N | – | – | healthy white men | dose not given, day 14, 336 h, LS mean difference, together with: sildenafil 50 mg | relative to: placebo | seated DBP maximum decrease | -1.12 mmHg
COc1ccccc1CNC(=O)c1cc(S(=O)(=O)N2CCC(C)C2)c(C)n1C (centres unmarked) | rep nsp14 | inhibitor | – | – | – | IC50 | 570 nM
Nc1nc(N)c2c(ccc3nccc32)[nH]1 | folA | differential scanning fluorimetry | – | estimate from thermal shift | – | Kd | 2400 ± 600 nM
N#CCC1CCN(c2nc(Nc3ccc(N4CCC(O)CC4)cc3)c3c(=O)[nH]ncc3n2)CC1 | – | Olink multiplex, refers to: CD163 | human, serum | 20 mg, day 29, unit not given | relative to: placebo | serum level change | -1.07

For quick reference, copied from above:
Structure (SMILES) | tested on | test | test system | conditions | scale | endpoint | value
CO/N=C(\C(=O)N[C@@H]1C(=O)N2C(C(=O)O)=C(COC(C)=O)CS[C@H]12)c1csc(N)n1 | Salmonella enterica serovar Derby | broth microdilution | clinical isolate RKI-No 436/14 | – | – | MIC | > 16 µg/mL
O=P(O)(O)OC1O[C@H](CO)[C@@H](O)[C@H](O)[C@@H]1O (some centres unmarked) | uncharacterized protein (Bacteroides thetaiotaomicron, UniProt Q8A4G9) | activator, phosphate release | – | concentration not given, together with: Mg2+ | – | phosphatase activity | inactive
[Mg+2] | uncharacterized protein (Bacteroides thetaiotaomicron, UniProt Q8A183) | phosphatase activity, activator, phosphate release | – | 5 mM, EDTA-treated enzyme, together with: substrate 20 mM | relative to: activity with this ion | relative specific activity | 1
